Measured values gathered from unrelated publications.
Lines come from different studies, so protocols differ.
rhlR: HTH-type quorum-sensing regulator RhlR (rhlR, Pseudomonas aeruginosa, UniProt P54292)
Chain of UniProt P54292 (whole entry, looked up): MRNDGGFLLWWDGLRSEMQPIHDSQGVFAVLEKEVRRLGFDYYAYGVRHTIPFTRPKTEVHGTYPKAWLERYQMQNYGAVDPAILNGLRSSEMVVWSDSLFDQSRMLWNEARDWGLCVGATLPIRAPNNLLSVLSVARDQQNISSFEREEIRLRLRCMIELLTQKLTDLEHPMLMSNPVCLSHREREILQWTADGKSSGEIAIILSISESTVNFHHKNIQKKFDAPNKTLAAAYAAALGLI
T1: dsDNA, duplex; chain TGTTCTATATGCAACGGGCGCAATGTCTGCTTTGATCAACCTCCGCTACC; chain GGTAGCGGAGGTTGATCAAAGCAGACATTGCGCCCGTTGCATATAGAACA
T2: dsDNA; chain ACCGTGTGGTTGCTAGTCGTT; chain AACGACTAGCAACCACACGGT
T3: dsDNA, duplex; CGCGAATTCGCG
T4: FMN riboswitch RNA, two annealed strands (Fusobacterium nucleatum); chain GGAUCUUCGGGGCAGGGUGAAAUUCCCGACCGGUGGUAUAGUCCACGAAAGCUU; chain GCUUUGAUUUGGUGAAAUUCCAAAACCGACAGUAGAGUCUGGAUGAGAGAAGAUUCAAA
Chain of UniProt O75716 (whole entry, looked up): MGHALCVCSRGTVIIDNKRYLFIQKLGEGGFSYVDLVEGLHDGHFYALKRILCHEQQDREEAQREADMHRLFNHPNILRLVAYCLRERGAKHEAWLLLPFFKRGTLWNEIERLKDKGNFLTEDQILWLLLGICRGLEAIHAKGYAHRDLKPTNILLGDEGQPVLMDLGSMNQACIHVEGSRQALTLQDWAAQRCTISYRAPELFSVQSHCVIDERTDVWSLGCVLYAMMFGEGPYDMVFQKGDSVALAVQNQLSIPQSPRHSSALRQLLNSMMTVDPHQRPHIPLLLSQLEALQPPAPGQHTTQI

SMILES | target | test | system | setting | scale | binding
COc1cc(C#CC(=O)CC(C)C)ccc1O | rhlR | receptor binding |  | concentration not given, 1.5 h, added: BHL at 1:1 ratio | baseline: control | 81%
CCOc1ccc2c(-c3cc(C)nc(Nc4cc(OC)cc(C(F)(F)F)c4)n3)cnn2n1 | Serine/threonine-protein kinase 16 (STK16, Homo sapiens, UniProt O75716) | NanoBRET target engagement | live cells | concentration not given, no binding |  | no binding
COc1cccc2c1C(=O)c1c(O)c3c(c(O)c1C2=O)C[C@@](O)(C(=O)CO)C[C@@H]3O[C@H]1C[C@H](N)[C@H](O)[C@H](C)O1 | T1, dsDNA, duplex | DLS, TEM |  | qualitative |  | binds
O=C(O)/C=C/c1ccc(O)c(O)c1 | Keap1 Kelch domain N532A mutant (human) | isothermal titration calorimetry |  | concentration not given |  | no binding
CC[n+]1c(-c2ccccc2)c2cc(N)ccc2c2ccc(N)cc21 | T2, dsDNA | fluorescence enhancement |  | 20 °C, Mg2+ 12.5 mM, ethidium displacement |  | binds
N=C(N)c1ccc(-c2ccc(-c3cc4ccc(C(=N)N)cc4[nH]3)s2)cc1 | T3, dsDNA, duplex | X-ray crystallography |  |  |  | binds
O=C(C#Cc1ccc(F)c(F)c1)c1cccc(Cl)c1 | rhlR | receptor binding |  | concentration not given, 1.5 h, added: BHL at 1:1 ratio | baseline: control | 72%
N=C(N)c1ccc(-c2ccc(-c3nc4ccc(C(=N)N)cc4[nH]3)s2)cc1 | T3, dsDNA, duplex | X-ray crystallography |  |  |  | binds
O=C(C#Cc1ccc(F)c(F)c1)c1ccccc1Cl | rhlR | receptor binding |  | concentration not given, 1.5 h, added: BHL at 1:1 ratio | baseline: control | 63%
Cc1cc2nc3c(=O)[nH]c(=O)nc-3n(C[C@H](O)[C@H](O)[C@H](O)COP(=O)(O)O)c2cc1C | T4, FMN riboswitch RNA, two annealed strands (Fusobacterium nucleatum) | competitor, MALDI-TOF-MS |  | added: FMN 50 µM |  | binds

Some of these lines once more:
SMILES | target | test | system | setting | scale | binding
CCOc1ccc2c(-c3cc(C)nc(Nc4cc(OC)cc(C(F)(F)F)c4)n3)cnn2n1 | Serine/threonine-protein kinase 16 (STK16, Homo sapiens, UniProt O75716) | NanoBRET target engagement | live cells | concentration not given, no binding |  | no binding
COc1cccc2c1C(=O)c1c(O)c3c(c(O)c1C2=O)C[C@@](O)(C(=O)CO)C[C@@H]3O[C@H]1C[C@H](N)[C@H](O)[C@H](C)O1 | T1, dsDNA, duplex | DLS, TEM |  | qualitative |  | binds
